Published values of several laboratories.
Protocols differ between the studies behind these lines. Values joined by “and” are separate records of one study, mostly repeats; a detail may differ. Numbers after ± are the reported error.
TARDBP aggregated: TAR DNA-binding protein 43, aggregated (TARDBP, Homo sapiens, UniProt Q13148)
Sodium- and chloride-dependent glycine transporter 2: Sodium- and chloride-dependent glycine transporter 2 (Homo sapiens, UniProt Q9Y345)
Gria1/Gria2: Glutamate receptor AMPA 1/2 (Gria1/Gria2, Rattus norvegicus, UniProt P19490+P19491)
KAT5: Histone acetyltransferase KAT5 (KAT5, Homo sapiens, UniProt Q92993)

`O=C1c2sc(-c3ccc(N4CCC(F)C4)nc3F)nc2CCN1c1cccnc1` (stereo not drawn) gave a specific binding of 0.517 nM and 0.634 nM (TARDBP aggregated; radioligand binding; human, FTLD-TDP type B extract; added: radioligand 2.52 nM).
`CN1CCCNC(=O)c2cccc(c2)C(=O)NCCCN(C)CCCNc2cccc3c2C(=O)c2cccc(c2C3=O)NCCC1`: “log2 fold change” -2.22 (SAS; RNA-Seq, item: JMJD6 mRNA; 1 µM, 6 h; relative to: untreated cells).
Under “cAMP luminescence AUC”, `CCCCCCCCCCCCCCCC(=O)NCCCC[C@H](NC(=O)[C@H](CCC(=O)O)NC(=O)[C@H](Cc1ccc(O)cc1)NC(=O)[C@H](CCC(=O)O)NC(=O)COCC(=O)NCCCOCCOCCOCCCNC(=O)[C@H](Cc1c[nH]c2ccccc12)NC(=O)[C@H](CCCCN)NC(=O)[C@H](C)NC(=O)[C@H](CCCCNC(=N)N)NC(=O)[C@H](CCC(N)=O)NC(=O)[C@H](Cc1c[nH]cn1)NC(=O)[C@H](CCSC)NC(=O)[C@H](CC(C)C)NC(=O)[C@H](CCC(N)=O)NC(=O)[C@@H](NC(=O)[C@H](CCC(=O)O)NC(=O)C(C)(C)NC(=O)[C@@H](NC(=O)C(C)(C)N)C(C)C)[C@@H](C)CC)C(=O)N[C@@H](CCC(=O)O)C(=O)N[C@@H](Cc1ccc(O)cc1)C(=O)N[C@@H](CCC(=O)O)C(N)=O` is recorded as 75.4 a.u. (PTH1R (Homo sapiens, UniProt Q03431); agonist; Saos-2 with cAMP reporter; 1 nM, 30 min, ligand-on phase; higher = more cAMP).
`OC[C@@H]1[C@@H](O)[C@H](O)[C@@H](O)c2nccn21` gave a ΔG of -9.919 ± 0.0406 kcal/mol (bglA (Thermotoga maritima, UniProt Q08638); ITC; pH 5.8, 25 °C).
For `CCCCCCCCCCCCC/C=C/C=O`, “isoTOP-ABPP competition ratio” read 1 (Multifunctional methyltransferase subunit TRM112-like protein (TRMT112, Homo sapiens, UniProt Q9UI30); competitive isoTOP-ABPP, item: HSPC152 cysteine peptide; Ramos soluble proteome; 100 µM, added: iodoacetamide probe; relative to: DMSO over compound-treated, higher = stronger cysteine blockade).
`C#CCCCCNC(=O)c1ccc(N(C(=O)C=C)c2ccc(Br)cc2)cc1` gave a reactivity ratio of 1.69 (PHGDH (Homo sapiens, UniProt O43175); mass spectrometry profiling; H460 cell lysate; 100 µM over 10 µM, UniProt O43175; relative to: high over low concentration).
`CC1=CC(C)=[N+]2C1=C(CCCN1CCCC(C(=O)O)C1)c1c(C)cc(C)n1[B-]2(F)F` (stereo not drawn) — result for “remaining specific binding”: 81.6 ± 1.6% (Sodium- and chloride-dependent glycine transporter 2; MS binding competition; 10 µM).
`CC(=O)n1cc([C@H]2C=C(C(=O)N3CCN(Cc4ccc5c(c4)OCO5)CC3)O[C@@H](OCc3ccc(CO)cc3)C2)c2ccccc21` gave a translation activity of 56.2% (Trypanosoma cruzi; reporter mRNA translation, inhibitor, item: Renilla luciferase mRNA; cell-free extract; concentration not given, test 1; relative to: positive over negative control).
With `Nc1ncc(-c2cc(-c3cnn(CC(F)(F)F)c3)ncc2F)nc1C(=O)NC1CNCC(F)C1` (stereo not drawn) the remaining binding was 51% (LKB1; KINOMEscan; 1 µM; relative to: DMSO control).
The current amplitude of `COC(=O)Cc1cc2c(cc1C(=O)c1ccccc1Br)OCO2` is reported as 235 ± 16 pA (Gria1/Gria2; glutamate-evoked current, whole-cell patch clamp; HEK-293T; concentration not given, pH 7.4, holding potential -60 mV, added: 10 mM glutamate).
The kinact/Ki of `O[C@@H]1[C@@H](O)[C@H](F)C=C[C@H]1O` is reported as 0.59 ± 0.27 M⁻¹ s⁻¹ (GBA1 (Homo sapiens, UniProt P04062); continuous progress curves; pH 5.2, 25 °C, 0.1% BSA).
`Cc1cc(-c2ccccc2)cc(C(=O)NNS(=O)(=O)c2ccccc2)c1F`: “SPR binding response” 0.11 RU (KAT5; SPR; 0.07 µM; higher = more binding).
For `CC(C)=CC1OC(C)(C)C2C=C3C(=O)C(Cl)=CC(O)C3C3C(O)C4OC4C(=O)C132` (stereo not drawn), the remaining binding was 67% (Tyrosine-protein kinase ABL1, non-phosphorylated (ABL1, Homo sapiens, UniProt P00519); cell-free assay, competition with immobilised ligand; 10 µM).
`COc1ccccc1C1(O)CCN(CCCCC2=C3C(C)=CC(C)=[N+]3[B-](F)(F)n3c(C)cc(C)c32)CC1`: “remaining specific binding” 69.6 ± 6.1% (Sodium- and chloride-dependent glycine transporter 2; MS binding competition; 10 µM).
With `CCc1ccc(N2CCC(O)C2)cc1` (stereo not drawn) the inhibition was 28.2% (Uridine nucleoside ribohydrolase (Trichomonas vaginalis, UniProt A2FTT0); 19F NMR; 50 µM, added: 0.01% Triton X-100).
`Cc1cc(C(=O)Nc2nc3cccc(C)c3n2[C@H]2CCCCN(C(=O)/C=C/CN(C)C)C2)ccn1` gave a kinase activity of -2.66% and -3.02% (CDC2-like kinase 1 (Trypanosoma brucei brucei, UniProt Q382U0); ADP-Glo; 1.25 µM).
`COc1ccc(CCN(C)CCCC(C#N)(c2ccc(OC)c(OC)c2)C(C)C)cc1OC` (stereo not drawn) gave a translation activity of 102% (Trypanosoma cruzi; reporter mRNA translation, inhibitor, item: Renilla luciferase mRNA; cell-free extract; concentration not given, test 1; relative to: positive over negative control).
`O=S(=O)(Nc1ccc(CO)cc1)c1ccc(Cl)c(Cl)c1` gave a Vmax of 0.15 nM NADH/s/nM enzyme (17-beta-hydroxysteroid dehydrogenase 13 (Homo sapiens, UniProt Q7Z5P4); substrate, NADH fluorescence).
`COc1cc2ncnc(Nc3ccc(Oc4cccc(-c5ccccc5)c4)cc3)c2cc1OC` gave an activity of 430% and > 400% (SMUG1 (Homo sapiens, UniProt Q53HV7); enzyme activity, activator, fluorescence; 2 µM; relative to: control).
`CC[C@H](C)[C@H](NC(=O)[C@H](CCC(=O)O)NC(=O)[C@H](CO)NC(=O)[C@@H](NC(=O)[C@@H](N)CO)C(C)C)C(=O)N[C@@H](CCC(N)=O)C(=O)N[C@@H](CC(C)C)C(=O)N[C@@H](CCSC)C(=O)N[C@@H](Cc1c[nH]cn1)C(=O)N[C@@H](CC(N)=O)C(=O)N[C@@H](CC(C)C)C(=O)NCC(=O)N[C@@H](CCCCN)C(=O)N[C@@H](Cc1c[nH]cn1)C(=O)N[C@@H](CC(C)C)C(=O)N[C@@H](CC(N)=O)C(=O)N[C@@H](CO)C(=O)N[C@@H](CCSC)C(=O)N[C@@H](CCC(=O)O)C(=O)N[C@@H](CCCNC(=N)N)C(=O)N[C@H](C(=O)N[C@@H](CCC(=O)O)C(=O)N[C@@H](Cc1c[nH]c2ccccc12)C(=O)N[C@@H](CC(C)C)C(=O)N[C@@H](CCCNC(=N)N)C(=O)N[C@@H](CCCCN)C(=O)N[C@@H](CCCCN)C(=O)N[C@@H](CC(C)C)C(=O)N[C@@H](CCC(N)=O)C(=O)N[C@@H](CC(=O)O)C(=O)N[C@H](C(=O)N[C@@H](Cc1c[nH]cn1)C(=O)N[C@@H](CC(N)=O)C(=O)N[C@@H](Cc1ccccc1)C(=O)O)C(C)C)C(C)C` gave an Emax of 100% (PTH2R (Homo sapiens, UniProt P49190); cAMP accumulation, agonist; HEK293T; 40 min; relative to: wild type).
With `CNS(=O)(=O)Nc1nccc(Cc2c(C)c3ccc(Oc4ncccc4F)cc3oc2=O)c1F` the IC50 was 4.53 nM (KU-19-19; cell viability; 7 days).
`O=C(O)Cc1cc2c(cc1C(=O)c1ccccc1Br)OCO2`: “deactivation time constant” 5.6 ± 0.3 ms (Gria1/Gria2; whole-cell patch clamp; HEK-293T; concentration not given, added: glutamate).
`C#CCOC(=O)[C@@]1(C)C=C(C(=O)OC(C)(C)C)C(=O)CC1`: “normalized kinase activity” 1.15 (MAPK1 (Homo sapiens, UniProt P28482); enzyme activity, D-SENSOR; 0.06097 µM, mean of replicates).
`CCN(CC)C(CO)c1cccc2c(C)c(C)oc12` (stereo not drawn) gave a fold change of 0.964 and 0.775 and 0.978 and 0.803 and 0.996 and 0.889 (LPAR1 (Homo sapiens, UniProt Q92633, W271F); G-protein dissociation, agonist, NanoBiT; HEK-293T; 1 nM, W271F mutant; relative to: baseline luminescence).
`Cn1c(=O)n(C2CCC(=O)NC2=O)c2ccc(C3CCN(CC(=O)Nc4cccc(CS(=O)(=O)N5CC[C@H](Nc6cccc(-c7sc(C(=O)O)c(OCC(=O)O)c7Cl)c6)CC5(C)C)c4)CC3)cc21` (stereo partly drawn) — result for “BLI binding response”: 0.264 a.u. and 0.262 a.u. (PTPN2 (Homo sapiens, UniProt P17706); degrader, bio-layer interferometry; 62.5 nM, biotinylated protein immobilised; higher = more binding).
`O=C(O)Cc1cc2c(cc1C(=O)c1cccc(Cl)c1)OCO2` — result for “deactivation time constant”: 9.5 ± 0.5 ms (Gria1/Gria2; glutamate-evoked current, whole-cell patch clamp; HEK-293T; concentration not given, weighted tau, 1 ms pulse, added: glutamate).
The remaining activity of `N#Cc1cnc2sc(C(=O)O)cc2c1N1CCc2[nH]nc(C(=O)N[C@@H](CC(=O)NCCOCCN3CCOCC3)c3cccc(Br)c3)c2C1` is reported as 118% (IL1R1 (Homo sapiens, UniProt P14778); SEAP reporter gene, antagonist; HEK-Blue IL-36R cells; 11.11 µM, 6 h, added: IL-1β 5 ng/mL; relative to: untreated).
Under “probe labelling ratio”, `CCCCCC(O)/C=C/C=O` (stereo not drawn) is recorded as 0.64 (EEF1A1 (Homo sapiens, UniProt P68104); acylphosphate-ATP probe SILAC-ABPP; ZAK-transfected HEK293T; 100 µM, added: acylphosphate-ATP probe; relative to: DMSO over compound-treated).
`CCCCCCCCCCCCCCCc1cccc(OCC)c1C(=O)Nc1ccc(Cl)c(C(F)(F)F)c1`: “SPR binding response” 0.146 RU (KAT5; SPR; 0.63 µM; higher = more binding).
The cAMP luminescence of `CC(C)Oc1cc(Cl)ccc1CNc1cc(-c2ccccc2)nc2ncnn12` is reported as 32000 a.u. and 54500 a.u. and 47000 a.u. and 29300 a.u. and 40700 a.u. (GPR3 (Homo sapiens, UniProt P46089); cAMP reporter; human cells; 1 nM; higher is more cAMP).
`N[C@H]1CC[C@H](Nc2nccc(-c3cccnc3Oc3ccc(NC(=O)NC4CC4)c4ccccc34)n2)CC1`: “log2 LFQ intensity” 22.9 and 22.8 and 22.1 and 22.5 (Cyclin-H (Homo sapiens, UniProt P51946); kinobead competition pulldown, item: CCNH; HEK293/HCT116 lysate mixture; 10 µM, 1 h, 4 °C; lower = stronger competition).
With `O=c1c2sccc2n(CC2COc3ccccc3O2)c(=O)n1O` (stereo not drawn) the binding stoichiometry was 1.1 (Flap endonuclease 1 (Homo sapiens, UniProt P39748); ITC; concentration not given, pH 7.5, 25 °C, added: 8 mM Mg2+).
With `c1coc(CNc2ncnc3nc[nH]c23)c1` the remaining fluorescence was 52% (Gelsolin, peptide (GSN, Homo sapiens, UniProt P06396); amyloid aggregation, ThT fluorescence; 100 µM, 12 h, 37 °C, inhibitor to peptide 1:1 molar; relative to: untreated).
With `O=C1c2sc(-c3ccc(N4CCC(CO)CC4)nc3F)nc2CCN1c1cccnc1` the specific binding was 0.069 nM (TARDBP aggregated; radioligand binding; control brain sarkosyl-insoluble extract; 26.56 nM).
`CCCCCC=CC=C1C(=O)C=CC1CC=CCCCC(=O)O` (stereo not drawn): “isoTOP-ABPP competition ratio” 1.4 (Isoleucine--tRNA ligase, cytoplasmic (Homo sapiens, UniProt P41252); competitive isoTOP-ABPP, item: IARS cysteine peptide; Ramos soluble proteome; 100 µM, added: iodoacetamide probe; relative to: DMSO over compound-treated, higher = stronger cysteine blockade).
`CCOC(=O)CCCc1cccc2c(-c3ccc(Oc4ccccc4)cc3)ccnc12` gave a ΔTm of -3 °C (Glideosome-associated protein 50 (GAP50, Plasmodium falciparum, UniProt Q8I2X3); differential scanning fluorimetry).

A few entries again:
`N[C@H]1CC[C@H](Nc2nccc(-c3cccnc3Oc3ccc(NC(=O)NC4CC4)c4ccccc34)n2)CC1`: “log2 LFQ intensity” 22.9 and 22.8 and 22.1 and 22.5 (Cyclin-H (Homo sapiens, UniProt P51946); kinobead competition pulldown, item: CCNH; HEK293/HCT116 lysate mixture; 10 µM, 1 h, 4 °C; lower = stronger competition).
`COc1ccccc1C1(O)CCN(CCCCC2=C3C(C)=CC(C)=[N+]3[B-](F)(F)n3c(C)cc(C)c32)CC1`: “remaining specific binding” 69.6 ± 6.1% (Sodium- and chloride-dependent glycine transporter 2; MS binding competition; 10 µM).
For `CC(C)=CC1OC(C)(C)C2C=C3C(=O)C(Cl)=CC(O)C3C3C(O)C4OC4C(=O)C132` (stereo not drawn), the remaining binding was 67% (Tyrosine-protein kinase ABL1, non-phosphorylated (ABL1, Homo sapiens, UniProt P00519); cell-free assay, competition with immobilised ligand; 10 µM).
